Results of several laboratories.
Parts stem from different laboratories: compare values within a part only. Positions count from the first letter of the parent shown.

Series 1
Target: ABI1, truncated, D143A, DHFR fusion (Arabidopsis thaliana)
Technique: DHFR PCA, deep sequencing
Sample: yeast
Notes: methotrexate growth selection, single substitutions
With: (+)-ABA 4.8 µM
Baseline: wild-type fitted maximum
Reading: higher = stronger binding
Quantity: relative binding score
Parent: PYL1, truncated, DHFR fusion (Arabidopsis thaliana); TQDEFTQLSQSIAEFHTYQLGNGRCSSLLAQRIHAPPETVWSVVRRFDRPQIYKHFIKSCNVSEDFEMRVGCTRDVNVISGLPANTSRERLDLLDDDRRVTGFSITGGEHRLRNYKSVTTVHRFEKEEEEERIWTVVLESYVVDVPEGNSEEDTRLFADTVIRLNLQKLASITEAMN
Change = V40L; result = -2.51%
Change = D75A; result = 60.6%
Change = A30W; result = 71.4%
Change = K116A; result = 39.8%
Change = L29R; result = 17.1%
Change = F15Y; result = 71.2%
Change = T106Y; result = 65.7%
Change = S59P; result = -0.529%
Change = R24F; result = 15.6%
Change = S87Q; result = 22.9%
Change = H122N; result = 17.8%
Change = I105L; result = -11.2%
Change = L169I; result = 12.4%
Change = G71Q; result = -17.9%
Change = R111E; result = -6.48%
Change = N61C; result = 70.8%
Change = G21P; result = 63.7%
Change = Y141K; result = -3.57%
Change = G102M; result = 9.46%

Series 2
Target: CCNE1, cyclin fold, Cln2 fusion (human)
Technique: yeast growth competition, sequencing
Sample: yeast
Notes: strong parent motif
Baseline: not given
Reading: higher = stronger binding
Quantity: normalised enrichment score
Parent: PKN2 docking peptide (human); VSAVRKLDFSDTM; partner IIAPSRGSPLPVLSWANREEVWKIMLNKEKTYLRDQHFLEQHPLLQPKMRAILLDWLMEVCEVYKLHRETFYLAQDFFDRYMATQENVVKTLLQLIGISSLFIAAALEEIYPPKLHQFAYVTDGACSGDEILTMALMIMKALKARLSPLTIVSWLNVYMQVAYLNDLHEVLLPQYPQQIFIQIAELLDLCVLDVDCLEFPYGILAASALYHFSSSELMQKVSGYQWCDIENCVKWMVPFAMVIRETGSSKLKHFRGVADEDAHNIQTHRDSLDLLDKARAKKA
Change = VSAVRPLDFSDTM [K6P]; result = 0.283
Change = VSAVRKLDRSDTM [F9R]; result = 0.0373
Change = VSGVRKLDFSDTM [A3G]; result = 2.42
Change = VSAVLKLDFSDTM [R5L]; result = 0.691
Change = VSAVRKLHFSDTM [D8H]; result = 4.53
Change = VSPVRKLDFSDTM [A3P]; result = 2.16
Change = VSAVRKLDFSDYM [T12Y]; result = 5.68
Change = VSAVRKVDFSDTM [L7V]; result = 0.434
Change = VSAVRKLDNSDTM [F9N]; result = -0.124
Change = VSAVRKLDFPDTM [S10P]; result = 5.12

Series 3
Molecule: PhoQ, residues 284 288 289 292 302 303 SVTLVV
Technique: Sort-seq
Refers to: YFP reporter
Sample: E. coli
Notes: PhoQ-PhoP variant library
With: 10 µM Mg2+
Baseline: high Mg2+ state
Reading: higher = stronger signaling
Quantity: fold induction
target = PhoP, residues 12 14 15 18 19 NFFVT (Escherichia coli, UniProt P23836); result = 12.8
target = PhoP, residues 12 14 15 18 19 VGHWL (Escherichia coli, UniProt P23836); result = 2.44
target = PhoP, residues 12 14 15 18 19 LHHYF (Escherichia coli, UniProt P23836); result = 11.4

Series 4
Target: Centromere-binding protein 1, full length, His-tagged (CBF1, Saccharomyces cerevisiae, UniProt P17106, residues 1-351)
Chain of UniProt P17106 (whole entry, looked up): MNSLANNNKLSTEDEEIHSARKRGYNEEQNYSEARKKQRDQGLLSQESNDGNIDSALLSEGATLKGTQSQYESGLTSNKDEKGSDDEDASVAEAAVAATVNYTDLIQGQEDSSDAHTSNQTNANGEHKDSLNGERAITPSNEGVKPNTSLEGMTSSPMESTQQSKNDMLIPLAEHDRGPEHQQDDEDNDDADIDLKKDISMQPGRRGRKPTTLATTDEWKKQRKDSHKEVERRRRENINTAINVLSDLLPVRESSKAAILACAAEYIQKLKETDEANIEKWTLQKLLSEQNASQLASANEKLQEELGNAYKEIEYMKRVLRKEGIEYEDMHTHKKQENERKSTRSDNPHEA
Technique: competition protein-binding microarray
Molecule type: double-stranded DNA, one strand shown
Sample: in vitro
Concentration: 2 µM
Notes: whole 60-bp probe, lowest competitor level
With: Pho4 competitor, 0.05 µM
Reading: higher = stronger binding
Quantity: fluorescence intensity
Strand = CTAACGAAGGTTTGTCACCGTACTTACAAGCCAAGTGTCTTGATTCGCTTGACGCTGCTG; result = 80.3 a.u.
Strand = AGAAGAGGCATATCGCACGTTTTACCGGGTCAGAAAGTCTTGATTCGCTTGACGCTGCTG; result = 73 a.u.
Strand = CATACCCAACCTTGTCACTAGACTTAAGATATTTGTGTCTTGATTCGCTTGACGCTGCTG; result = 93 a.u.
Strand = CGGACGCCCACTCCTCACGGGAATAAGTTAGAATGTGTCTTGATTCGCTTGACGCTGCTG; result = 93.4 a.u.
Strand = TTCTAGGTATTGATGCAGGTGAGGAAAAGGAAAAAGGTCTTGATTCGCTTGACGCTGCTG; result = 91 a.u.
Strand = GTCGTCTATGGGTGTTGCGTGGGTAGTTCTCGCGCTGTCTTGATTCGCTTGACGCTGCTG; result = 83.1 a.u.
Strand = AAATTACTAAGTTGAGGTGTGGGTGACGCCGTATGAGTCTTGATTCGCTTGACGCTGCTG; result = 75.7 a.u.
Strand = CGGGGTTAAGTTTGAATAGTGGGTGGCTTGCAGCAGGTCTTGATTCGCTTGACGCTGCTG; result = 64.3 a.u.
Strand = ATGAGATTGAAATCCTCCGTGATGGGCTCCGGAACTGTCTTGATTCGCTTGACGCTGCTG; result = 64.5 a.u.
Strand = TTTTCTGATTGCCAGCCCGTGCGGATTAGGGATTTCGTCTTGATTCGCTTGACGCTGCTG; result = 79.7 a.u.
Strand = TTCAGAGAACTCCTTCATGTGCTTCAAGACAGAGTCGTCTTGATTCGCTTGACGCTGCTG; result = 91 a.u.
Strand = CACAAGACGATTTTGCACGTGGTGAGTTTTGTAAGCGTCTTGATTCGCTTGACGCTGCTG; result = 1900 a.u.
Strand = CCTCACCCTAGTGAGCATGTGCCCAGGGCTGGGTCAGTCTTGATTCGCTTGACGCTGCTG; result = 144 a.u.
Strand = CGTCCTAGTGATTGTCACGAGACTTCCATGAGGAAGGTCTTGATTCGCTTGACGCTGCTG; result = 1080 a.u.
Strand = TCCACTGAGATGACTACTGTGACGGGTACCAACGGTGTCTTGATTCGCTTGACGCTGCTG; result = 64.7 a.u.
Strand = TAGTCTTTGTCTAGCTTCGTGCTTTTTAGCAAAAGCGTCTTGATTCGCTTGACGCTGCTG; result = 59.6 a.u.
Strand = AGCAACCTTCTTGGCACCGTGCTTTTTGGCGACCTTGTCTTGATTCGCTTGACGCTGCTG; result = 52.9 a.u.

Excerpt of the above (series 4):
Strand = TTCTAGGTATTGATGCAGGTGAGGAAAAGGAAAAAGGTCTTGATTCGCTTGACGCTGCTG; result = 91 a.u.
Strand = AGCAACCTTCTTGGCACCGTGCTTTTTGGCGACCTTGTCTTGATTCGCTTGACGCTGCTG; result = 52.9 a.u.
Strand = CATACCCAACCTTGTCACTAGACTTAAGATATTTGTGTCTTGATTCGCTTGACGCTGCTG; result = 93 a.u.
Strand = AGAAGAGGCATATCGCACGTTTTACCGGGTCAGAAAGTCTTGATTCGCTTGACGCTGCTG; result = 73 a.u.
Strand = TTTTCTGATTGCCAGCCCGTGCGGATTAGGGATTTCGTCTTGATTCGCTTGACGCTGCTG; result = 79.7 a.u.
Strand = CGGGGTTAAGTTTGAATAGTGGGTGGCTTGCAGCAGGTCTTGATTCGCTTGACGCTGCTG; result = 64.3 a.u.
